Assay results pooled from the literature.
Lines come from different studies, so protocols differ. Numbers after ± are the reported error.
Slc6a3: Sodium-dependent dopamine transporter (Slc6a3, Rattus norvegicus, UniProt P23977)
Sequence of UniProt P23977 (whole entry, looked up): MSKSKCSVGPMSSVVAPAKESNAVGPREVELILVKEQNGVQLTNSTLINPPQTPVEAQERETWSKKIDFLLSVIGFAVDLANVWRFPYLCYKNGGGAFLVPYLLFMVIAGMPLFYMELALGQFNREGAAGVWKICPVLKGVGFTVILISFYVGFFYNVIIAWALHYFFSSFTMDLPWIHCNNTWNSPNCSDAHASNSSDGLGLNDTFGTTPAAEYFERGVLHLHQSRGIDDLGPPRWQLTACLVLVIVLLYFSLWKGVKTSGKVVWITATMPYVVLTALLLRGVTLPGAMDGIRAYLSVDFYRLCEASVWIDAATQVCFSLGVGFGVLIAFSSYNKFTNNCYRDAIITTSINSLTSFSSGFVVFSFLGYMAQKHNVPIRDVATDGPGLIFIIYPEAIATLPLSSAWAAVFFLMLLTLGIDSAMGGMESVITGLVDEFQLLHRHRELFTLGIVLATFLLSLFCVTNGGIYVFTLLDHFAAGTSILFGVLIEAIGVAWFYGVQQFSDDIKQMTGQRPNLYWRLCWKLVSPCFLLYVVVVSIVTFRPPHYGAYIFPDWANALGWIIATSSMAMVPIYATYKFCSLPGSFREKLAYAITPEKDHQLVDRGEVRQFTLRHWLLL
Sequence of UniProt P31645 (whole entry, looked up): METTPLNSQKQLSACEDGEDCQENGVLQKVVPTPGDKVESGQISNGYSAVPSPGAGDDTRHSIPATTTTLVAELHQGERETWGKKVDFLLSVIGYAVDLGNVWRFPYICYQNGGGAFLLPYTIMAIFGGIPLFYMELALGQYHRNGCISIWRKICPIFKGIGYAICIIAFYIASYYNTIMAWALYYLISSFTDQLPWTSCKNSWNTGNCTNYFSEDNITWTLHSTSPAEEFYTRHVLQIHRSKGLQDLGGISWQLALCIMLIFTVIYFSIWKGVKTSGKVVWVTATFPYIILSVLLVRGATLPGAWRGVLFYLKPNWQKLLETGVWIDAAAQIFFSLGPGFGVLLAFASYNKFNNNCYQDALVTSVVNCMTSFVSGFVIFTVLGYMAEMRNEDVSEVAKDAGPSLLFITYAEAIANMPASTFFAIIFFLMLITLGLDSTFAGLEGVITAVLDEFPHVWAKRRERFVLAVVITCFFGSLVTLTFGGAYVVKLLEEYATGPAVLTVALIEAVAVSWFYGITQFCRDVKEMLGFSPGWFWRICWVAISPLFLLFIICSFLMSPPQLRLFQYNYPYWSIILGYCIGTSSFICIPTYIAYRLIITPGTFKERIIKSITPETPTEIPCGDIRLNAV
Sequence of UniProt P28236 (whole entry, looked up): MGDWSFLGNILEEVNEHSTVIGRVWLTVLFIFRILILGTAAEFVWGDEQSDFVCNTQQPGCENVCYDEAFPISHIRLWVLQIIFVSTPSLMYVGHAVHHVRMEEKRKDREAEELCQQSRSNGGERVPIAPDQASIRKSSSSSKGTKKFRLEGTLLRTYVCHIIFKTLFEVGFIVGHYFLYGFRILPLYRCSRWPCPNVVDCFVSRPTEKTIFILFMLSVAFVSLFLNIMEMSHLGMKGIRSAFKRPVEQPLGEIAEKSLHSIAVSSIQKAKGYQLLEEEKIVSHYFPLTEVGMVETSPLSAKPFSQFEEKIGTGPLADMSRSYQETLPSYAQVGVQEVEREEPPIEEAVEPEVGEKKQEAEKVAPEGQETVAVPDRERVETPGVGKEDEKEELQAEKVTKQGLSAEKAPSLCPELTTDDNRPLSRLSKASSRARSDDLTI
Sequence of UniProt P18508 (whole entry, looked up): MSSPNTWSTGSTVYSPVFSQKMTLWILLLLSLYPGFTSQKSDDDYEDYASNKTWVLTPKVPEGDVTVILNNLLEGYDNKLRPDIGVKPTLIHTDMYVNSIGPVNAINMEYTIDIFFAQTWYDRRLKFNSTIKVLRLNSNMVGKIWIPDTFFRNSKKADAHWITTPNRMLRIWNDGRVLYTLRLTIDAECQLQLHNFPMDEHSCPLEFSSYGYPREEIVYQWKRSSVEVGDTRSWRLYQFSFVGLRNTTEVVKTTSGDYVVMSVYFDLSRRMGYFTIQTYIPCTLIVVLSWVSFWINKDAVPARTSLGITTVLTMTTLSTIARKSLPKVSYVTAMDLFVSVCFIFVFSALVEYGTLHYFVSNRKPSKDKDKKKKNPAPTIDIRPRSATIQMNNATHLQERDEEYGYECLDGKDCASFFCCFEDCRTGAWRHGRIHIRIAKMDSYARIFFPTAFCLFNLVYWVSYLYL
Sequence of UniProt P22309 (whole entry, looked up): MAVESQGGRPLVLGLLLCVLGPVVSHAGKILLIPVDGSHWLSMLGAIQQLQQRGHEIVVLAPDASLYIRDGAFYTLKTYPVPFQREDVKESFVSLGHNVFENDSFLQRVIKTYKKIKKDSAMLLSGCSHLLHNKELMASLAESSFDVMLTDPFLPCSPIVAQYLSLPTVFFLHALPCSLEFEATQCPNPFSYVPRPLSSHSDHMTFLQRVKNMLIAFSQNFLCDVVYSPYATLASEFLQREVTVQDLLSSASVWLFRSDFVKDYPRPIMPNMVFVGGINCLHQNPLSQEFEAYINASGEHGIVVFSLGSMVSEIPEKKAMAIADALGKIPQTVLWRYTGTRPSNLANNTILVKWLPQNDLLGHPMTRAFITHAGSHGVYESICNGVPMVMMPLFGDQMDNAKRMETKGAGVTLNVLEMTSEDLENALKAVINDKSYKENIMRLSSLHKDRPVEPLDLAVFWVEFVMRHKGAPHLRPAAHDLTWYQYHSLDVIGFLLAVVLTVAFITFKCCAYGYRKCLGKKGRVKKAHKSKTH
Sequence of UniProt P05177 (whole entry, looked up): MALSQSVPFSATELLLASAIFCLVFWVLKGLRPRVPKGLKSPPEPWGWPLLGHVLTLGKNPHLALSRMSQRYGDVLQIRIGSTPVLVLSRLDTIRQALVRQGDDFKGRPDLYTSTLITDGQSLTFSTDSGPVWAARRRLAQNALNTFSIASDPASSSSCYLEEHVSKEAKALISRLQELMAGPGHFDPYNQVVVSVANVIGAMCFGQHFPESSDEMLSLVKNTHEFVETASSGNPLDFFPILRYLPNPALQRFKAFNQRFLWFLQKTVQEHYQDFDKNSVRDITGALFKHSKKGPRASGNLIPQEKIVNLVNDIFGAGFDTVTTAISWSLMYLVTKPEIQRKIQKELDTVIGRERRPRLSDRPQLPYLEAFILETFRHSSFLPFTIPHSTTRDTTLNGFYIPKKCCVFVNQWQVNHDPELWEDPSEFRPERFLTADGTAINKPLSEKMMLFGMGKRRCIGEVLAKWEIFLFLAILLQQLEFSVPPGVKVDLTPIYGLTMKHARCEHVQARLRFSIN
Sequence of UniProt P01116 (whole entry, looked up): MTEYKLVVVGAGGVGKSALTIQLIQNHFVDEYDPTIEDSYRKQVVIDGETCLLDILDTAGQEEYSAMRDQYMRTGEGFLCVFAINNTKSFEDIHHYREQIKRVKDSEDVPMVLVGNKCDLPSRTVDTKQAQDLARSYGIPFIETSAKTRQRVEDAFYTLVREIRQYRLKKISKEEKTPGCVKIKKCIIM
Sequence of UniProt P62813 (whole entry, looked up): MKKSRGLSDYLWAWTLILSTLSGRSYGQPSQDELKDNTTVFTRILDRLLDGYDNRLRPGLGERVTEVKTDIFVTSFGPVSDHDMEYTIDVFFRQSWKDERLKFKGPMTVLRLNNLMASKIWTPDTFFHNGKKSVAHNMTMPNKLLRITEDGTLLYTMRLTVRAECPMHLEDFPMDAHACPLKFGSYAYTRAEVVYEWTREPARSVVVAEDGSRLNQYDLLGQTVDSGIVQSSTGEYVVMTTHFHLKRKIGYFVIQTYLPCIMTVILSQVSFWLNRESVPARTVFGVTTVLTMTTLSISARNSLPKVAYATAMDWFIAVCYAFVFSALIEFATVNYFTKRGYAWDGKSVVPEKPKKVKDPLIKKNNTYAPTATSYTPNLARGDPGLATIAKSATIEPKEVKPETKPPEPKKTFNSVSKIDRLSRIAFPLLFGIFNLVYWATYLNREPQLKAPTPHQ

| SMILES | target or system | assay | test system | setting | quantity | result |
| --- | --- | --- | --- | --- | --- | --- |
| CCC[C@@H](C(=O)c1ccccc1)N1CCCC1 | Sodium-dependent serotonin transporter (SLC6A4, Homo sapiens, UniProt P31645) | transporter uptake, inhibitor, radiometric | – | – | IC50 | 207 µM |
| CCC1CN2CCC3(O)C(=Nc4cccc(OC)c43)C2CC1C(=COC)C(=O)OC (stereo not shown) | UDP-glucuronosyltransferase 1A1 (UGT1A1, Homo sapiens, UniProt P22309) | enzyme activity, inhibitor | – | 2 h, pH 7.4 | IC50 | 7.13 µM |
| Cc1ccccc1N1C(=O)/C(=C/c2ccc(OCc3cccc(C(=O)O)c3)cc2)C(=O)NC1=S | Receptor-type tyrosine-protein phosphatase C (PTPRC, Homo sapiens, UniProt P08575) | enzyme activity, inhibitor | – | – | IC50 | 30.1 µM |
| OC(c1ccccc1)(c1ccccc1)[C@H]1CCCN1 | Gap junction alpha-8 protein (Gja8, Mus musculus, UniProt P28236) | gap junction current, inhibitor, dual whole-cell voltage clamp | transfected mouse N2a cell pairs | – | IC50 | 10 µM |
| O=C1CC(=O)N(c2ccccc2)c2cc(Cl)ccc2N1 | Gabrg2/Gabra1, with β2 subunit (Rattus norvegicus, UniProt P18508+P62813) | binding, radioligand displacement | HEK293 cell membranes | together with: 1 nM [3H]flunitrazepam | IC50 | 0.78 ± 0.15 µM |
| CCCCCc1cc(O)c2c(c1)OC(C)(C)C1CCC(C)=CC21 (single isomer, unassigned; (-)) | Cytochrome P450 1A2 (CYP1A2, Homo sapiens, UniProt P05177) | inhibitor | HEK cell microsomes | 30 min preincubation without NADPH | IC50 | 2.7 ± 1 µM |
| CC(=O)Oc1cccc2[nH]cc(CC[N+](C)(C)C)c12 | Slc6a3 | transporter uptake, inhibitor, radiometric | – | – | IC50 | > 10 µM |
| CN[C@](C)(C[18F])C(=O)O | A549 tumour model | – | host not given, muscle | 15 min, tumour-bearing | tracer uptake | 2.1 %ID/g |
| CCC[N+](C)(C)CCc1c[nH]c2cccc(O)c12 | Slc6a3 | transporter uptake, inhibitor, radiometric | – | – | IC50 | > 10 µM |
| Cc1[nH]c2cc(Cl)cc(Cl)c2c1CCN | GTPase KRas (KRAS, Homo sapiens, UniProt P01116) | enzyme activity, inhibitor | – | – | IC50 | 1560 µM |

Repeated from above:
| SMILES | target or system | assay | test system | setting | quantity | result |
| --- | --- | --- | --- | --- | --- | --- |
| Cc1ccccc1N1C(=O)/C(=C/c2ccc(OCc3cccc(C(=O)O)c3)cc2)C(=O)NC1=S | Receptor-type tyrosine-protein phosphatase C (PTPRC, Homo sapiens, UniProt P08575) | enzyme activity, inhibitor | – | – | IC50 | 30.1 µM |
